Assay results of several laboratories.
Lines come from different studies, so protocols differ. ± marks the error that the study gave.

COc1cc(CNC(=O)C[C@H](C)CCC=C(C)C)ccc1OCc1cn(-c2ccc(Br)cc2)nn1
growth percent (DU-145; SRB; 10 µM, 48 h): 92.7%

CC1=CC(C)(C)N=C(Nc2nc(C)c3cc(C)cc(C)c3n2)N1
IFN-γ level (PBMC; ELISA; 10 µM, 288 h): 108%

CC(=O)O[C@@H]1CC[C@@]2(C)C(CC[C@]3(C)C2C(=O)C=C2C4[C@@H](C)[C@H](C)CC[C@]4(C)CC[C@]23C)[C@@]1(C)C(=O)OCc1cn(-c2cc(=O)oc3ccccc23)nn1 (some centres unmarked)
inhibition (RAW264.7; NO release, inhibitor, Griess; 10 µM, 24 h, LPS-stimulated): 62.8%

COc1cc(CNC(=O)C[C@H](C)CCC=C(C)C)ccc1O
growth (LOX IMVI; SRB; 10 µM, 48 h): 93%

Cc1ccc(C(=O)N(Cc2ccc(C(F)(F)F)cc2)C2CC2)c(O)c1O
cell migration (DLD-1; wound healing; 20 µM, 24 and 48 h): decreased

COc1cc(CN2CCN(c3ccc(C(F)(F)F)cc3)CC2)c2cc3[n+](cc2c1O)CCc1cc2c(cc1-3)OCO2
therapeutic index (HeLa and MDCK; SRB; 48 h; reference: CC50 MDCK over IC50 HeLa): 27.8

O=[N+]([O-])c1c(Nc2cc(F)cc(Cl)c2)ccc2nonc12
mRNA level (Hep3B; item: EPAS1; 1 or 10 µM): no effect

CCC[C@H]1CC[C@H](c2ccc(NC(=S)NC[C@@H]3[C@@H](O)[C@@H](O)[C@H]4[C@H](O)CCCN43)cc2)CC1
cell migration (Huh-7; Transwell; concentration not given): decreased

COc1cc(CNC(=O)C[C@H](C)CCC=C(C)C)ccc1OCc1cn(-c2ccc(Cl)cc2Cl)nn1
growth percent (EKVX; SRB; 10 µM, 48 h): 81.1%

CC(=O)OC[C@H]1O[C@@H](Sc2sc(C(=O)c3ccc(Br)cc3)c(N)c2-c2nc3ccccc3s2)[C@H](OC(C)=O)[C@@H](OC(C)=O)[C@@H]1OC(C)=O
growth (EKVX; SRB; 10 µM, 48 h; reference: untreated): 72.7%

Nc1nc2cc(CC[C@H]3C[C@@H](n4ccc5c(N)ncnc54)[C@H](O)[C@@H]3O)ccc2cc1Br
SmD1/3 dimethylation reduction (NCI-H1048; item: SmD1/3-Me2; 10 nM, 72 h): > 80%

CC(C)(C)C(=O)Nc1ccc2[nH]c(CN3CCC(N(CCCN4CCOCC4)CC4OC(n5cnc6c(N)ncnc65)C(O)C4O)CC3)nc2c1 (centres unmarked)
RAF1, p-MEK, p-ERK levels (H460 R231Q cells; Western blot; 5 µM; reference: untreated): decreased

CS(=O)(=O)c1ccc(-c2nnc(/C=C/c3nnc(-c4ccc(C#N)cc4)o3)n2-c2ccccc2Cl)nc1
DNA synthesis (COLO 320DM; BrdU incorporation; concentration not given, 48 h): decreased

O=C(O)c1ccc(-c2coc3ncc(-c4ccccc4)cc23)cc1Cl
AMPKα Thr172 phosphorylation (A549 (LKB1-deficient); immunoblot; concentration not given, 30 min preincubation, with: ionomycin 1 µM for 5 min): no inhibition

CC/C=C\C/C=C\C/C=C\C/C=C\C/C=C\C/C=C\CCC(=O)Nc1ccn(C2OC(CO)C(O)C2(F)F)c(=O)n1 (centres unmarked)
TGI (OVCAR-5; NCI60 screen): 22500 nM

O=C1OCC2=C1C(c1cccc(Br)c1)C1=C(N2)C(=O)c2ccccc2C1=O (centres unmarked)
cells in G2/M phase (SK-LU-1 cells; PI flow cytometry; 0.16 µM, 24 h): 69.2%

COc1cc(CNC(=O)C[C@H](C)CCC=C(C)C)ccc1OCc1cn(-c2ccccc2F)nn1
growth percent (MDA-MB-435 melanoma cells; SRB; 10 µM, 48 h): 100%

CC1(C)OC(=O)C[C@H](O)[C@]2(C)[C@H]3CC[C@@]4(C)[C@H](c5ccoc5)OC(=O)[C@H]5O[C@]54[C@]3(C)C(=O)C[C@@H]12
combination index (COLO 320 (ABCB1-overexpressing, multidrug-resistant); cell growth; 200 µM starting, CI at ED50, with: doxorubicin, ratio 23.2:1): 1.18

COc1cc(CNC(=O)C[C@H](C)CCC=C(C)C)ccc1OCc1cn(-c2cccc([N+](=O)[O-])c2)nn1
growth percent (ACHN; SRB; 10 µM, 48 h): 112%

COc1cc2c(OC3OCC(OC)C(OC)C3OC(=O)c3ccc(Br)cc3)c3c(c(-c4ccc5c(c4)OCO5)c2cc1OC)C(=O)OC3 (centres unmarked)
protein level (CAL-27; western blot, item: mature cathepsin D; 0.1, 1, 2 µM, 36 h, with: bafilomycin A1 0.1 µM; reference: DMSO): decreased

CC(=O)OC[C@H]1O[C@@H](Sc2sc(C(=O)c3ccc(C)cc3)c(N)c2-c2nc3ccccc3s2)[C@H](OC(C)=O)[C@@H](OC(C)=O)[C@@H]1OC(C)=O
growth (EKVX; SRB; 10 µM, 48 h; reference: untreated): 75%

COc1ccc([C@@H]2CC(=O)c3c(O)cc(O[C@@H]4O[C@H](CO[C@@H]5O[C@@H](C)[C@H](O)[C@@H](O)[C@H]5O)[C@@H](O[C@H]5O[C@H](CO)[C@@H](O)[C@H](O)[C@H]5O)[C@H](O)[C@H]4O)cc3O2)cc1O
cell count (MRC5; trypan blue exclusion; 50 µg/mL, 24 h): 10400 ± 598

C=C(CC)C(=O)c1ccc(OCC(=O)NCCNC(=O)COc2ccc(C(=O)C(=C)CC)c(Cl)c2Cl)c(Cl)c1Cl
sensitisation to cisplatin (SK-OV-3/DDP cisplatin-resistant; cell growth, CCK-8; 1.0 µM, with: cisplatin): ~5 fold

CC(C)=CCc1c(OCC2OC2(C)C)ccc2ccc(=O)oc12 (centres unmarked)
combination index (COLO 320 (ABCB1-overexpressing, multidrug-resistant); cell growth; 150 µM starting, CI at ED50, with: doxorubicin, ratio 34.84:1): 0.72

COc1cc(CNC(=O)C[C@H](C)CCC=C(C)C)ccc1OCc1cn(-c2ccccc2Cl)nn1
growth percent (T47D breast cancer cells; SRB; 10 µM, 48 h): 9.14%

COc1cc2c(cc1C)NC(=O)C2=Cc1c(Cl)[nH]c2c1ccc1ccccc12
TGI (colon cancer subpanel of NCI-60; 48 h): 2880 nM

O=Cc1c(O)ccc2ccccc12
log2 fold change (HUVEC; RNA sequencing, item: MCM2; 75 µM, 24 h; reference: DMSO): -2.83

COc1cc(CNC(=O)C[C@H](C)CCC=C(C)C)ccc1OCc1cn(-c2ccc(Cl)c(Cl)c2)nn1
growth percent (MDA-MB-435 melanoma cells; SRB; 10 µM, 48 h): 91.3%

COC(=O)[C@H](CSSC(C)(C)[C@H](NC(=O)[C@H](CCC(=O)NC[C@H](O)[C@@H](O)[C@H](O)[C@H](O)CO)NC(=O)[C@H](CCC(=O)O)NC(=O)[C@H](CCC(=O)NC[C@H](O)[C@@H](O)[C@H](O)[C@H](O)CO)NC(=O)[C@H](CCC(=O)O)NC(=O)[C@H](CCC(=O)NC[C@H](O)[C@@H](O)[C@H](O)[C@H](O)CO)NC(=O)CC[C@H](NC(=O)c1ccc(NCc2cnc3nc(N)[nH]c(=O)c3n2)cc1)C(=O)O)C(=O)O)NC(=O)CC[C@H](NC(=O)c1ccc(NCc2cnc3nc(N)nc(N)c3n2)cc1)C(=O)O
cytokine release modulation (THP-1 FRβ, CD19-CAR T, NALM-6 triple co-culture; 10 µM, with: folic acid, 100-fold excess): inhibited

CC(C)c1cnn2c(NCc3ccccc3)cc(N[C@@H](CO)[C@H](O)CO)nc12
GI50 ratio (NIH-3T3 pHamdr1 (ABCB1-overexpressing); cell growth, sulforhodamine B; reference: pHamdr1 over parental 3T3): > 2

CCCCCCCCCCCCCCCC(=O)N[C@@H](CCC(=O)NCCCC[C@H](NC(=O)[C@H](CC(=O)O)NC(=O)[C@H](CO)NC(=O)[C@@H](NC(=O)[C@H](Cc1ccccc1)NC(=O)[C@@H](NC(=O)CNC(=O)[C@H](CCC(N)=O)NC(=O)[C@H](CO)NC(=O)[C@@H](N)Cc1c[nH]cn1)[C@@H](C)O)[C@@H](C)O)C(=O)N[C@@H](CO)C(=O)N[C@@H](CCC(=O)O)C(=O)N[C@@H](Cc1ccc(O)cc1)C(=O)N[C@@H](CC(C)C)C(=O)N[C@@H](CC(=O)O)C(=O)N[C@@H](CO)C(=O)N[C@@H](CCC(=O)O)C(=O)N[C@@H](CCCNC(=N)N)C(=O)N[C@@H](C)C(=O)N[C@@H](CCCNC(=N)N)C(=O)N[C@@H](CC(=O)O)C(=O)N[C@@H](Cc1ccccc1)C(=O)N[C@H](C(=O)N[C@@H](C)C(=O)N[C@@H](Cc1c[nH]c2ccccc12)C(=O)N[C@@H](CC(C)C)C(=O)N[C@@H](CCC(=O)O)C(=O)N[C@@H](C)C(=O)NCC(=O)NCC(=O)O)C(C)C)C(=O)O
EC50 (primary mouse hepatocytes; cAMP accumulation, agonist; 0.1% BSA): 0.84 ± 0.08 nM

CC(C)Cc1ccc(C(C)C(=O)N/N=C/c2ccc(OCC(=O)N/N=C/c3cccc(O)c3)cc2)cc1 (centres unmarked)
viability (U87 MG; MTT; 150 µM, 48 h): 94.8%

Cc1nn(-c2ccc(S(=O)(=O)N[C@H](CO)CC(C)C)cc2)c2nn3nnnc3nc12
tail DNA (HT-29; DNA damage, alkaline comet; 2 µM, 24 h): 24.1 ± 2.83%

CC(C)Cc1ccc(C(C)C(=O)N/N=C/c2ccc(OCC(=O)N/N=C/c3c(O)ccc4ccccc34)cc2)cc1 (centres unmarked)
viability (U87 MG; MTT; 100 µM, 48 h): 96.6%

O=C(N1CCCC1)n1cc(-c2ccc(-c3ccccc3)cc2)nn1
SILAC ratio (mouse T-cells; N-terminal labeled proteins, N-terminal enrichment proteomics, item: NDRG1; 1 nM, 6 h; reference: DMSO): 1.24 ± 0.28

COc1ccc2c(c1)/C(=N\Nc1nnc3n1N=C(c1ccccc1)CS3)C(=O)N2
inhibition (OVCAR-5; cell growth or viability, SRB; 10 µM): 18%

COc1cc(CNC(=O)C[C@H](C)CCC=C(C)C)ccc1OCc1cn(-c2cccc(Cl)c2)nn1
growth percent (ACHN; SRB; 10 µM, 48 h): 80.2%

Cc1ccc(S(=O)(=O)Nc2ccc(O)c3ccccc23)c(C)c1
autolysosomes per cell (PANC-1 RFP-GFP-LC3B; 10 µM, 24 h): decreased

Repeated from above:
CCCCCCCCCCCCCCCC(=O)N[C@@H](CCC(=O)NCCCC[C@H](NC(=O)[C@H](CC(=O)O)NC(=O)[C@H](CO)NC(=O)[C@@H](NC(=O)[C@H](Cc1ccccc1)NC(=O)[C@@H](NC(=O)CNC(=O)[C@H](CCC(N)=O)NC(=O)[C@H](CO)NC(=O)[C@@H](N)Cc1c[nH]cn1)[C@@H](C)O)[C@@H](C)O)C(=O)N[C@@H](CO)C(=O)N[C@@H](CCC(=O)O)C(=O)N[C@@H](Cc1ccc(O)cc1)C(=O)N[C@@H](CC(C)C)C(=O)N[C@@H](CC(=O)O)C(=O)N[C@@H](CO)C(=O)N[C@@H](CCC(=O)O)C(=O)N[C@@H](CCCNC(=N)N)C(=O)N[C@@H](C)C(=O)N[C@@H](CCCNC(=N)N)C(=O)N[C@@H](CC(=O)O)C(=O)N[C@@H](Cc1ccccc1)C(=O)N[C@H](C(=O)N[C@@H](C)C(=O)N[C@@H](Cc1c[nH]c2ccccc12)C(=O)N[C@@H](CC(C)C)C(=O)N[C@@H](CCC(=O)O)C(=O)N[C@@H](C)C(=O)NCC(=O)NCC(=O)O)C(C)C)C(=O)O
EC50 (primary mouse hepatocytes; cAMP accumulation, agonist; 0.1% BSA): 0.84 ± 0.08 nM

CC(C)Cc1ccc(C(C)C(=O)N/N=C/c2ccc(OCC(=O)N/N=C/c3cccc(O)c3)cc2)cc1 (centres unmarked)
viability (U87 MG; MTT; 150 µM, 48 h): 94.8%

Cc1nn(-c2ccc(S(=O)(=O)N[C@H](CO)CC(C)C)cc2)c2nn3nnnc3nc12
tail DNA (HT-29; DNA damage, alkaline comet; 2 µM, 24 h): 24.1 ± 2.83%
